Experimental data gathered from unrelated publications.
Numbered parts are unrelated; each lists some results of a single study.

Study 1
Target: RING finger protein unkempt homolog, zinc fingers 1-6, GST-SBP tag (UNK, Homo sapiens, UniProt Q9C0B0, residues 30-357)
Chain of UniProt Q9C0B0 (30-357, looked up): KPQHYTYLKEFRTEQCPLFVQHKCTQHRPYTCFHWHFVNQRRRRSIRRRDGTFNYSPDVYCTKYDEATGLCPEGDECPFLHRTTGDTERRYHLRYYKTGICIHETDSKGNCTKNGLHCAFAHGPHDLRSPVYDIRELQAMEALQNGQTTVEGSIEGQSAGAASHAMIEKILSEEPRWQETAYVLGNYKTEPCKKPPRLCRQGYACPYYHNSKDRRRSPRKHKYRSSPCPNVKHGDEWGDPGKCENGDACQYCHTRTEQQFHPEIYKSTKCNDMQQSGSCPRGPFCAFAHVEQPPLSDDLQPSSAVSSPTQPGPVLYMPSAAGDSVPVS
Method: RNA Bind-n-Seq
Molecule type: RNA
Sample: in vitro
Concentration: not given
Notes: RNA with constant flanks, ends assumed
Relative to: input RNA pool
Reading: higher = stronger binding
Quantity: bound/input enrichment
Constant ends, left off below: GGGAGUUCUACAGUCCGACGAUC … CAACAGAGGAUUGAGCAUCA
CUCCUGCUGCUGCUGCUCUGCAUCCAGCUCGGGGGAGGACAGAAGAAAAAGGAGAAUCUUUCCGCUGAAAAAGUAGAGCAGCUGAUGGAAUGGAGUUCCAGACGCUCAAUCUUCCGAAUG: 0.158 ratio
UGCUUGGUGCUGAUUUGUGAACCCAUUCCUCAUCCGUCAAAUAUUGAAAUUCCUUCCGACCGCAAGACAUUUCUCAGUCGACACAGCCUCGAUAUGAAAUUUUCUUACUGUGAUGAAAGA: 0.143 ratio
UCUCUUCCUAUGCCAGUACCAUACUGUCUUAAUUACUGUAGCCCUAGAGUAAGUUUUGAAUUCCGGAUGUGUUAGUUCUCUAGCUUUGUUCUACAUCAAGAUAAUUUUACCUGUUCUGGG: 2.54 ratio
AAAAAAAGAAUAAAAAUCAGCCAUUUUCAACAAUUUAUAUUAUUUUUAAAAAUAAAUUUCACCCGUGCAUGGUUUUAAAAAGGAGAGAGAAUGCAACAGGGUGAUACAAAGAUACACCAU: 3.18 ratio
ACUUCUGGAGGUGGGUUGGACCUCCGCGGAAUGUCUAGCUUCCAAACUUUGGCUGUUGGUAUCCGAGGCAGAUUUUCUUCUCGAGUCUCUCCUGCCUUGGAUGGGCCUCAAUAGGAGUGG: 0.514 ratio
CUCUUAAAAACUGUACCAAUUAUCCAAAAUCAAAUGGAUGCACUUCUUGAUUUUAAUGUUAACCGUAAUGAACUUACAAAUGGGGUAAUAAAUGCUGCCUUCAUGCUCCUCUUCAAAGAU: 0.297 ratio
CCUUCCUUUCUGGCCAGUUCACCAAAAGGCAAAGGCUAUAAUAGGAGGUUAGCGCUCCGCUGGCUUUGGAAGUAAGUCUUUAUUAGUUUUCUGAGGGAGAUCAGAGAUGCACAGCUGGAC: 0.409 ratio
UCCUCACCAUCAAACCCGAAUGGAAACUUUAAUGUCGUCAUUAAAGAAGAGCCUCCCGAUGAUUAUGAUUAUGAACUUGGUGAAUGCCCAGAAGGGAUAACAGUGAAACAAGAAGAGACA: 0.403 ratio

Study 2
Target: Sal-like protein 4, full length isoform A (SALL4, Homo sapiens, UniProt Q9UJQ4, residues 1-1053)
Chain of UniProt Q9UJQ4 (whole entry, looked up): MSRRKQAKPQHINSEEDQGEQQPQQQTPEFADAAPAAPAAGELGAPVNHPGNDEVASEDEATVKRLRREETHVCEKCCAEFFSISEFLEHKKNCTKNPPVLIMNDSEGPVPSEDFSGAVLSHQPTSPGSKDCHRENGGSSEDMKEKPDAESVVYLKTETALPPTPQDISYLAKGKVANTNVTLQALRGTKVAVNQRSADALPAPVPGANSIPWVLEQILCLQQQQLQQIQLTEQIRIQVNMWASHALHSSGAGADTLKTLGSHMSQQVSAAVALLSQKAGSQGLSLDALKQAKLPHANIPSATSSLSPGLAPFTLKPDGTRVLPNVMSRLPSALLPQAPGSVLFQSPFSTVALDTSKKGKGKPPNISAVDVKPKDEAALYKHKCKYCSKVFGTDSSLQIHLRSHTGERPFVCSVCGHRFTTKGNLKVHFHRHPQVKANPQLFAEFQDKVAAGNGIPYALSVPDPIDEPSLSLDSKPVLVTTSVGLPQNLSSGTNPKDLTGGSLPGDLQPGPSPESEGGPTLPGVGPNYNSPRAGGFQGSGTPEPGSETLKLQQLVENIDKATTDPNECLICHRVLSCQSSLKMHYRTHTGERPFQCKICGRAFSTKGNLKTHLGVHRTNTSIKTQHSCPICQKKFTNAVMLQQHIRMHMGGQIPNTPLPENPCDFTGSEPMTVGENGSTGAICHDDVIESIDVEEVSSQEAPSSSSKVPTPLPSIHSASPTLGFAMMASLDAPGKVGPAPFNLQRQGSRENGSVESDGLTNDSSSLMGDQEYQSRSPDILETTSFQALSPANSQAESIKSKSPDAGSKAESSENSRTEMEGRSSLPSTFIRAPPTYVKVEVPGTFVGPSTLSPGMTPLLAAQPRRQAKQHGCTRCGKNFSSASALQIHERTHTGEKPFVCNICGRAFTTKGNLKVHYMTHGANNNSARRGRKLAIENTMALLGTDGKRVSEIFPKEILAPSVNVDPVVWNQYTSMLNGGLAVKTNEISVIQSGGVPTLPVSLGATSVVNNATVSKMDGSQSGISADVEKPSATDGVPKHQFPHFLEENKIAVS
Method: universal PBM
Molecule type: double-stranded DNA, one strand shown
Sample: in vitro
Concentration: 600 nM
Notes: 8-mer, flanks averaged, mean of replicates
Reading: higher = stronger binding
Quantity: E-score
ATATGCAT: 0.325
ATAAGTGC: 0.114
AGCTTAAT: 0.188
CGAGCAAC: -0.203
GGAGTAAA: 0.205
ACTACCGA: -0.132
AGAGCGGA: 0.0305
GCAGAAAA: 0.0568
AAGTTGCA: 0.128
ATGACGCA: 0.0824
CGACGTAA: 0.00352
ATGCTATG: 0.237
AAAGTCCC: -0.00722
CAGCGATC: -0.117
GCCGGTCA: -0.287
AGCGTGCG: -0.177
AAGGTGTA: 0.0482
GAGTTGCA: -0.154
CAAGGTAC: 0.0566
AACAGTAT: 0.271
CCCATGGG: -0.313

Study 3
Target: Fragile X messenger ribonucleoprotein 1, C-terminal low-complexity region (Fmr1, Mus musculus, UniProt P35922)
Method: RNA Bind-n-Seq
Molecule type: RNA
Sample: in vitro
Concentration: 200 nM
Notes: whole 134-nt RNA, ends assumed
With: 150 mM LiCl
Relative to: input library
Reading: higher = stronger binding
Quantity: log2 enrichment
All molecules: 7-deaza-guanosine replaces G
Constant ends, left off below: GGGAGUUCUACAGUCCGACGAUC … UGGAAUUCUCGGGUGUCAAGG
CCUGUGCUACACAUCGUAUGUACCGAAUCGGGGUUUUUUGGUUUUUUGGGGUUUUUUGGGGAAAGUAUUAUGUUACGCCGUUCGGAUCUG: -1.1
CAAGUCCUGUGCUACACAUCGUAUGUACCGAAUCGGGAAAGGGGAAAGGGGAAAGGAAAGUAUUAUGUUACGCCGUUCGGAUCUGCACUU: -1.09
CAAGUCCUGUGCUACACAUCGUAUGUACCGAAUCGGCCCCGGGCCCCGGGCCCCGGAAAGUAUUAUGUUACGCCGUUCGGAUCUGCACUU: -1.66
GUCCUGUGCUACACAUCGUAUGUACCGAAUCGGGUUUUUGGGUUUUUGGGGUUUUUGGGAAAGUAUUAUGUUACGCCGUUCGGAUCUGCA: -0.829
CAUGUUGAAAGACAUGCUUUUAUUUUUUUGUAAAACAAUAUAGGAGCUGUGUCUACUAUUAAAAGUGAAACAUUUUGGCAUGUUUGUUAA: -3.75
UCAAGUCCUGUGCUACACAUCGUAUGUACCGAAUCGGGGAAGGAAGGGGAAGGGAAAGUAUUAUGUUACGCCGUUCGGAUCUGCACUUCC: -0.678
CUGUGCUACACAUCGUAUGUACCGAAUCGGUUUUUUUGGGGUUUUUUUGGGGUUUUUUUGGAAAGUAUUAUGUUACGCCGUUCGGAUCUG: 1.26
UGGGAGGUGGAUUUCGUUUAUUUUUUUAGCUCAUUUCCAGGGGUGGGAAUUUUUUUUUAAUAUGUGUCAUGAAUAAAGUUGUUUUUGAAA: 0.516

Study 4
Target: RNA binding protein fox-1 homolog 2, RRM domain, GST-SBP tag (RBFOX2, Homo sapiens, UniProt O43251-10, residues 100-194)
Method: RNA Bind-n-Seq
Molecule type: RNA
Sample: in vitro
Concentration: 365 nM
Notes: natural RNA segment, single round, ends assumed
Relative to: no-protein control
Reading: higher = stronger binding
Quantity: RBNS enrichment (R)
Constant ends, left off below: GGGAGUUCUACAGUCCGACGAUC … UGGAAUUCUCGGGUGCCAA
Construct (chain): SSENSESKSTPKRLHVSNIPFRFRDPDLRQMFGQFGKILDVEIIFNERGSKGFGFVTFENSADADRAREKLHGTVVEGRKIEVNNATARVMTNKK
CUCUCUCUCUCUCUCUCAUUAUGCCCUUGAACUGUAUUUUAGUGGUAAUGUGGGAUAGUAAUCUCAGUGAAAAGCAAACAGCGCAGGGUCUUGGAAGGGUGGUCUUUAUA: 0.468
CACACGCCGAGACUCUGCCGUACCCCUCUGUGGUUCAUAUUACUACUUCUGUUCCAUGGUGUGCAGGUCUGCUUCUUAAUUCAGUGUUAUGAUAUCUUCCAGUUUUUGCU: 0.742
UUUCCCACUACUCCCUUACUGUCUUUUAGCAUUCAGAGAAAAAGCCAACUUGCUUAAAGAGGAAUCACUUAAAAGGUAGGCAUAUCUAAGAUGCUCAUAGAAGAGGAAGA: 0.379
CUGGGCCACCUUGGGAAGCCAUCCUUGAGGCCCUUGCUCCAAUAGGAGAGGUAUUGUGGAUUCACACGGCAGUCACUUGUUGCCCUCAUGCCCUGUGGUGUUUGGCACGA: 0.168
GCCUAGGGCAACAGAUGUCCUGACUAAUCUGGCUUCUGGUUCCCGGUCCAUCCCUAUUUACAAAGCUAUGGGCCACUGUCAGCACAUUAAACAAGGUGAGGGAGAGUAGC: 0.366
CAGAAGAAUGGGAGAUGAGUAGGGACCCCUCAAGCACAGCUGUCACUCAGAAAUUUUAAAUUUGAAAAAGAAAUCGAUUUUCAUCUGUAUGCCGUCAAGGAAGGAAUUCA: 0.439
UAGAUCUUGUUCCACCUCUAAUCUUUCCUCGUUGUCUGUUCUUAUGUAUUCUUCAGUUUUCCCACUUCUCAGUGUCUUCACUCUAAGGACUUUUCCUGUCACUGUGAACU: 0.427
AAGAGGAGGAAAGGGGACCAAAGGGAAGUGAGGUCCUAGAGCGUUGACACUGAGGGAAGUCCUAUCUGUCAGUCCUGACCACUUAAGCCAGGACCCCAUGCUUCCUUUAC: 0.948

Excerpt of the above (study 3):
UCAAGUCCUGUGCUACACAUCGUAUGUACCGAAUCGGGGAAGGAAGGGGAAGGGAAAGUAUUAUGUUACGCCGUUCGGAUCUGCACUUCC: -0.678
CAAGUCCUGUGCUACACAUCGUAUGUACCGAAUCGGGAAAGGGGAAAGGGGAAAGGAAAGUAUUAUGUUACGCCGUUCGGAUCUGCACUU: -1.09
GUCCUGUGCUACACAUCGUAUGUACCGAAUCGGGUUUUUGGGUUUUUGGGGUUUUUGGGAAAGUAUUAUGUUACGCCGUUCGGAUCUGCA: -0.829
UGGGAGGUGGAUUUCGUUUAUUUUUUUAGCUCAUUUCCAGGGGUGGGAAUUUUUUUUUAAUAUGUGUCAUGAAUAAAGUUGUUUUUGAAA: 0.516
CCUGUGCUACACAUCGUAUGUACCGAAUCGGGGUUUUUUGGUUUUUUGGGGUUUUUUGGGGAAAGUAUUAUGUUACGCCGUUCGGAUCUG: -1.1
CAAGUCCUGUGCUACACAUCGUAUGUACCGAAUCGGCCCCGGGCCCCGGGCCCCGGAAAGUAUUAUGUUACGCCGUUCGGAUCUGCACUU: -1.66
